Assay results from different studies.
A part holds a random share of what one study measured.
UniProt Q8N568, sequence (whole entry, looked up): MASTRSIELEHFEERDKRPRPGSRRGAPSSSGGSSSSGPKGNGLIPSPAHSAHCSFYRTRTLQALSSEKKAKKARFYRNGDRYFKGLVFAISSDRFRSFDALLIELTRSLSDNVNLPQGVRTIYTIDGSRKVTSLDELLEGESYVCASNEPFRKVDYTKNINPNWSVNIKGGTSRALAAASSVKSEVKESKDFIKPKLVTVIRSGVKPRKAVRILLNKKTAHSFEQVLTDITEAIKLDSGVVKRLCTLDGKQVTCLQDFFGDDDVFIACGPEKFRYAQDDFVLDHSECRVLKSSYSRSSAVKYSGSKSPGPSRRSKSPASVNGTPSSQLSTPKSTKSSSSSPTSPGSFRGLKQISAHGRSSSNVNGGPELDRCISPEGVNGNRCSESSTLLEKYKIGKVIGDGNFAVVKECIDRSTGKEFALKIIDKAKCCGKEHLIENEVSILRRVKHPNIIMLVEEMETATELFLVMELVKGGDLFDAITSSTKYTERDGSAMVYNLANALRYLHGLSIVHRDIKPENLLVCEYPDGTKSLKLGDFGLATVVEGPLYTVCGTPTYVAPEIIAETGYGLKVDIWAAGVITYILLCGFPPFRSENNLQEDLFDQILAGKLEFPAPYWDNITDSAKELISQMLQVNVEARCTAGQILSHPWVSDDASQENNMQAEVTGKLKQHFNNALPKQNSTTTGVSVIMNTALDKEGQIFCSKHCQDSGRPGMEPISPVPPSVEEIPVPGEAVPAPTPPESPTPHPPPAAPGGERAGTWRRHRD
UniProt Q13554, sequence (whole entry, looked up): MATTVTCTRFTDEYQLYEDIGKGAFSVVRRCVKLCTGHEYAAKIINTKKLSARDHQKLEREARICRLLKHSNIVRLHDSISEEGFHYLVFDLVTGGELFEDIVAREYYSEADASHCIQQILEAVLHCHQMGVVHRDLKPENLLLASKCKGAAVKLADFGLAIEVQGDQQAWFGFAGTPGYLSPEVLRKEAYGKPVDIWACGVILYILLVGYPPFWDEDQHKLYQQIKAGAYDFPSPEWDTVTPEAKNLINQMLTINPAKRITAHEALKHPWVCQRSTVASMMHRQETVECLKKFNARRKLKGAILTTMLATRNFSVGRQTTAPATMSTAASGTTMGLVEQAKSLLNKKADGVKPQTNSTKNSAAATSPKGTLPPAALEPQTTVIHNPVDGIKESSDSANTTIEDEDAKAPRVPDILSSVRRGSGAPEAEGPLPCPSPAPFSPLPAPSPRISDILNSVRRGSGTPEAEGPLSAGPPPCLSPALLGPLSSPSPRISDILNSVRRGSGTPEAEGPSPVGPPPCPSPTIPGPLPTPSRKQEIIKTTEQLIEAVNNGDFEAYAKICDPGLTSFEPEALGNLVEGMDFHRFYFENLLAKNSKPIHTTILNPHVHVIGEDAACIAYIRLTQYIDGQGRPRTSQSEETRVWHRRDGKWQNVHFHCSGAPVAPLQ
UniProt Q8NEV4, sequence (whole entry, looked up): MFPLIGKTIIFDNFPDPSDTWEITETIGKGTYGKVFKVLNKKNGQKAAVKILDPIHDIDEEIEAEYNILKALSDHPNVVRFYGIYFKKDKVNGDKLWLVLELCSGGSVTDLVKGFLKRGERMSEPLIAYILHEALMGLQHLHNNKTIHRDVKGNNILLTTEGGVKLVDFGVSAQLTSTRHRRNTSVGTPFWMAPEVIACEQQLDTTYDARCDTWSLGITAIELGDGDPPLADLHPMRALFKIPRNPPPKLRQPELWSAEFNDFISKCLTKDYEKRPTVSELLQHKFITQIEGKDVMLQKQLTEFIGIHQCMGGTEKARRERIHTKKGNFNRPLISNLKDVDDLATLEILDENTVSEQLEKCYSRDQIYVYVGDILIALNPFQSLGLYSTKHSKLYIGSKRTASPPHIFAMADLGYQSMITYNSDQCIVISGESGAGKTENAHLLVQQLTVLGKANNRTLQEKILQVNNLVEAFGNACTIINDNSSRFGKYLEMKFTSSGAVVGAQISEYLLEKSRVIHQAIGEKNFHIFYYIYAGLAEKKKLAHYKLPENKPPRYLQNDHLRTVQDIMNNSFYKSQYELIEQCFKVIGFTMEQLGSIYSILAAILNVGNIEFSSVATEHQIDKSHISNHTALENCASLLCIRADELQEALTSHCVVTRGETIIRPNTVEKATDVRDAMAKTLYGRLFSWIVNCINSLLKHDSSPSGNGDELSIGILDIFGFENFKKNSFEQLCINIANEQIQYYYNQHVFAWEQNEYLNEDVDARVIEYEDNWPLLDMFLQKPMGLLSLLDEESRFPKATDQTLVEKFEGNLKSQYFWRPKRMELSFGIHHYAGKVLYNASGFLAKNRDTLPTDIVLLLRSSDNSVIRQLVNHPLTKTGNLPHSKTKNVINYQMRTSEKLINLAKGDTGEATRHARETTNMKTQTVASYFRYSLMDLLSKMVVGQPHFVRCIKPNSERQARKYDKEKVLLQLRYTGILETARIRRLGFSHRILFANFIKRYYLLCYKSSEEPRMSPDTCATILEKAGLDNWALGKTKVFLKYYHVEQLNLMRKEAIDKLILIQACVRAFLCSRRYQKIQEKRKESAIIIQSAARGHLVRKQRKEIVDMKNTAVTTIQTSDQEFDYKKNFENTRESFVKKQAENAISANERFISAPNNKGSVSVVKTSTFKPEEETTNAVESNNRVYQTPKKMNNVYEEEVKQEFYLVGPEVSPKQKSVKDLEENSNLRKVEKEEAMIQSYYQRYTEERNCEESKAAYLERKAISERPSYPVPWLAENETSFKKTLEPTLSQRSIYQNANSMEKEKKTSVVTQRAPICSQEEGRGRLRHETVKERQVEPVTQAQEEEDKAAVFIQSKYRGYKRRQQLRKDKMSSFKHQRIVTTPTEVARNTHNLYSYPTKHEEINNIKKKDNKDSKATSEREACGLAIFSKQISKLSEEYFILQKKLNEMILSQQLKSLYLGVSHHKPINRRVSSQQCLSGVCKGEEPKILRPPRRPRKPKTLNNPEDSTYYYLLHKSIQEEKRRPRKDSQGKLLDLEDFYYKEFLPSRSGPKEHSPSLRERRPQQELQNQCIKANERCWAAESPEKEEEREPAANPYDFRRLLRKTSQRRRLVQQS
UniProt O14730, sequence (whole entry, looked up): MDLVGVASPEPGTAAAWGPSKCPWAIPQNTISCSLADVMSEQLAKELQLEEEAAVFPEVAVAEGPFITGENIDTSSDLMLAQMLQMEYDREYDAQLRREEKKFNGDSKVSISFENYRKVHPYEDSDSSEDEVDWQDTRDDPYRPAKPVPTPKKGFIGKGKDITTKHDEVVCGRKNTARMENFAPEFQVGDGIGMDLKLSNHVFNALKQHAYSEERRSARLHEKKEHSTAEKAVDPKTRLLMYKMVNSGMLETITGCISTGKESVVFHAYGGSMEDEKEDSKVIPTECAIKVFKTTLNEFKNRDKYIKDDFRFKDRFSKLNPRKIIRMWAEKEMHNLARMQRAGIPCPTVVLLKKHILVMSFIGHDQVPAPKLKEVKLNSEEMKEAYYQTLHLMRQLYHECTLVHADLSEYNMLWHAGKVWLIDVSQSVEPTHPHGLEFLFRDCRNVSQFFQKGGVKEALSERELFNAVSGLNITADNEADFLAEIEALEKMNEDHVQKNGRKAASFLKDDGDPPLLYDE
UniProt Q9Y616, sequence (whole entry, looked up): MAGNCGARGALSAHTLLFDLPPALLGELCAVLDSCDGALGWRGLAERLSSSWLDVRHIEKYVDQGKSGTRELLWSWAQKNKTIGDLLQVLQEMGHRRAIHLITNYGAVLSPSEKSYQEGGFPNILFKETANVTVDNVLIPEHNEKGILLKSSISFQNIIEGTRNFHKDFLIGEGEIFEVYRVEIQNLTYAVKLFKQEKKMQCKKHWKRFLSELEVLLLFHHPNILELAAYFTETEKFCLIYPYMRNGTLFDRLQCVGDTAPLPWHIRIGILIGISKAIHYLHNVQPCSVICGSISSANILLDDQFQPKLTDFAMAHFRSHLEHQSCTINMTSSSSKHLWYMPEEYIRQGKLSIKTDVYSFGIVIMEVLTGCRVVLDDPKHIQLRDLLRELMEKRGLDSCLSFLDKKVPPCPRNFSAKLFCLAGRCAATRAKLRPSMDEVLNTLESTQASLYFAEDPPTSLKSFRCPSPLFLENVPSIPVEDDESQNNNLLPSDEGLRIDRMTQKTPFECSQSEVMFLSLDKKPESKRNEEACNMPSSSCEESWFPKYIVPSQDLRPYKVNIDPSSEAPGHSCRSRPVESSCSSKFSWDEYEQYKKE

Sample 1
SMILES: O=C(Nc1cnc(Oc2ccc(F)cc2)nc1)N1CCc2ncccc2[C@@H]1c1ccc(F)cc1
Method: competition with immobilised ligand
Tested at: 1 µM
target	test	remaining binding
DDR2 (Homo sapiens, UniProt Q16832)	cell-free assay	100%
CAMK2B (Homo sapiens, UniProt Q13554)	cell-free assay	92%
CDK11A (Homo sapiens, UniProt Q9UQ88)	binding	91%
DCLK2 (Homo sapiens, UniProt Q8N568)	cell-free assay	90%
DSTYK (Homo sapiens, UniProt Q6XUX3)	cell-free assay	100%
Myosin-IIIa (MYO3A, Homo sapiens, UniProt Q8NEV4)	binding	100%
RIOK3 (Homo sapiens, UniProt O14730)	cell-free assay	89%
STK38L (Homo sapiens, UniProt Q9Y2H1)	cell-free assay	75%
KIT (Homo sapiens, UniProt P10721, D816H)	cell-free assay	96%
MAPKAPK2 (Homo sapiens, UniProt P49137)	cell-free assay	80%
IRAK3 (Homo sapiens, UniProt Q9Y616)	cell-free assay	100%
CDK15 (Homo sapiens, UniProt Q96Q40)	cell-free assay	93%

Sample 2
Target: RNA binding protein fox-1 homolog 2, RRM domain, GST-SBP tag (RBFOX2, Homo sapiens, UniProt O43251-10, residues 100-194)
Method: RNA Bind-n-Seq
Form: RNA
Medium: in vitro
Tested at: 365 nM
Notes: natural RNA segment, single round, ends assumed
Baseline: no-protein control
Direction: higher = stronger binding
All sequences stand within: GGGAGUUCUACAGUCCGACGAUC … UGGAAUUCUCGGGUGCCAA
Residues (chain): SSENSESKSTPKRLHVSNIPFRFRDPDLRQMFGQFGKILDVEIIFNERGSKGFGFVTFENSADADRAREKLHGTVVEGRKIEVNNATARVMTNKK
Sequence	RBNS enrichment (R)
AGAAAAUAAAAGACUGCACUUUGGAGAGGCAAGCACGCUAUCCGGGUUGUUGUUUUGUUUUAUGUCUUGGUGCUUAGGUGAGGACUUAGCUGGGUUUAUUCAAAGUGGGC	0.616
UAAGAUUGUAAAUCCAUUUCCUGCUUGUGUUCUUAGUGGGCAUGAUUGUGAGUGUGUGUGGGGUGCUCACACGCGUGCCAGUCUUUUUGUACUGUAACUACCUCAUGGUU	1.09
CAUUUUUUAAUUGAGCAAAUGUCUAUUGAACACUUAAAAUUAAUUAGAAUGUGGUAAUGGACAUAUUACUGAGCCUCUCCAUUUGGAACCCAGUGGAGUUGGGAUUUCUA	0.32
GUGUCUGUUUUGUUUUGUUUGUUUCGUUUUUAUUUUUCAGUUAAAGCACGCACAGACAUACAUGUCGAGAGCGGACUUUAGGCUUUCAUGUGUUAAACCGCUUGAGUUAC	1.54
CCACCAGAUAUCAAGUACUCAUGACUUGACUCCCAAAUGCGCCGUUACAGGGCUAAGUUAAAGCCAGACUUUAAAGUUCUGUCACGGUGGUAAGGAAAGAAACAGGAGGU	0.443
AAGUACCAGGUCAUGUCCAUCCCUUGGUACAUAUAUGCAUUUGCUUUUAAACCAUUUCUUUUGUUUAAAUAAAUAAAUAAGUAAAUAAAGCUAGUUCUAUUGAAAUGCAA	0.776
UACCUGCCACUUGGUCCUGGGAGGUCAAAGGCCACAGAGGGAUAGGUACAGUCACCACCACCCUGGAACCAAGGGUCUCACACCAUUGCUCAGUGCUGAACUAUAACUGC	0.46
CAGGGUCUAAAGAGAACAAGAGGUGCUAGCUCUUACCAAAACAGAUGGUAGAGAGAGUUGCUGGCUAUUUAAAAAGCUCUUUCAUCUUUUAAUUCACCUCUUCUUUUCAC	0.462

Sample 3
Target: Fragile X messenger ribonucleoprotein 1, C-terminal low-complexity region (Fmr1, Mus musculus, UniProt P35922)
Method: RNA Bind-n-Seq
Form: RNA
Medium: in vitro
Tested at: 200 nM
Notes: whole 134-nt RNA, ends assumed
Added: 150 mM KCl
Baseline: input library
Direction: higher = stronger binding
All sequences stand within: GGGAGUUCUACAGUCCGACGAUC … UGGAAUUCUCGGGUGUCAAGG
Sequence	log2 enrichment
ACCAUGCAGGUGGGCAUCUUUGGGAAGUGGGCCAAGGGGGGGAUAGGGAGGGGGGUAACACUUUGGGAACAGGUGGUCCCAGGUCGUUUC	0.927
UAACUUUAGAGGAGGAUCUGAUGGAUAUGGCAGUGGACGUGGAUUUGGGGAUGGCUAUAAUGGGUAUGGAGGAGGACCUGGAGGUGGGAA	0.29
AGUCCUGUGCUACACAUCGUAUGUACCGAAUCGGAAAAAGGAAAAAGGGGAAAAAGGGAAAGUAUUAUGUUACGCCGUUCGGAUCUGCAC	-0.549
UGGCCCUGGUGGCAUGCGGGGAGGAAGAGGUGGCCUCAUGGAUCGUGGUGGUCCCGGUGGAAUGUUCAGAGGUGGCCGUGGUGGGGACAG	0.081
UCCUGUGCUACACAUCGUAUGUACCGAAUCGGUUUUUUGGGGUUUUUUGGUUUUUUGGGAAAGUAUUAUGUUACGCCGUUCGGAUCUGCA	-0.1
CUGUGCUACACAUCGUAUGUACCGAAUCGGGUUUUUUUGGGUUUUUUUGGGGUUUUUUUGGGAAAGUAUUAUGUUACGCCGUUCGGAUCU	-0.201
UGGGAGGUGGAUUUUGUUUAUUUUUUUAGCUCAUUUCCAGGGGUGGGAAUUUUUUUUUGAUAUGUGUCAUGAAUAAAGUUGUUUUUGAAA	0.171
CCUGUGCUACACAUCGUAUGUACCGAAUCGGUUUUUUUGGUUUUUUUGGGUUUUUUUGGGGAAAGUAUUAUGUUACGCCGUUCGGAUCUG	-1.06

Sample 4
Target: Protein kinase C theta type (PRKCQ, Homo sapiens, UniProt Q04759)
UniProt Q04759, sequence (whole entry, looked up): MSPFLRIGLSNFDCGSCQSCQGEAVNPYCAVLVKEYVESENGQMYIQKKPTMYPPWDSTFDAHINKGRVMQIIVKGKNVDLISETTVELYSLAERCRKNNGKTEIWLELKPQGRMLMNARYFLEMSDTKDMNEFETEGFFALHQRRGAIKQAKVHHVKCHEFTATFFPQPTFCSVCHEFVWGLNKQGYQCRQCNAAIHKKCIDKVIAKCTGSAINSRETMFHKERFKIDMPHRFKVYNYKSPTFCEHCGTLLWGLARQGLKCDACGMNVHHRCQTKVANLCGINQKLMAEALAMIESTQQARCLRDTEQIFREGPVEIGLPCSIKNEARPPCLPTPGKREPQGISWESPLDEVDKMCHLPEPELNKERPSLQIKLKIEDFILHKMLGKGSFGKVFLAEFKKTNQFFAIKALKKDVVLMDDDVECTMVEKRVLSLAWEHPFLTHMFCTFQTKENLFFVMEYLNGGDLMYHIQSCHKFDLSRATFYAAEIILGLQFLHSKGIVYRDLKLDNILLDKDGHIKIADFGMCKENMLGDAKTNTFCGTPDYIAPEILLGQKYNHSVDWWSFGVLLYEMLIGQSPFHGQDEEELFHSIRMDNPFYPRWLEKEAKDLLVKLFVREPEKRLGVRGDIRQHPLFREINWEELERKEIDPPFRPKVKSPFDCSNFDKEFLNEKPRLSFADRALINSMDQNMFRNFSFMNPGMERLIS
Read-out: enzyme activity
Action: inhibitor
Tested at: 0.5 µM
Baseline: control
Structure (SMILES)	remaining activity [%]
C#Cc1cccc(Nc2ncnc3cc(OCCOC)c(OCCOC)cc23)c1	77.2
COc1cc2nccc(Oc3ccc(NC(=S)NC(=O)c4ccccc4C)cc3)c2cc1OC	107
COc1ccc(OC)c2c(=S)c3ccccc3[nH]c12	98.9
Cn1c2ccccc2c2c3c(c4c5ccccc5n(CCC#N)c4c21)CNC3=O	76.3
Cc1cccc(-c2[nH]c(C(C)(C)C)nc2-c2ccc3c(c2)OCO3)n1	107
Cn1sc(=O)n(Cc2ccccc2)c1=O	100
CO[C@H]1C[C@@H]2CC[C@@H](C)[C@@](O)(O2)C(=O)C(=O)N2CCCC[C@H]2C(=O)O[C@H]([C@H](C)C[C@@H]2CC[C@@H](O)[C@H](OC)C2)CC(=O)[C@H](C)/C=C(\C)[C@@H](O)[C@@H](OC)C(=O)[C@H](C)C[C@H](C)/C=C/C=C/C=C/1C	126
Cc1nc(-c2ccccc2)c(-c2ccncc2)o1	120
N#CC(C#N)=C(N)/C(C#N)=C/c1ccc(O)cc1	99.8
O=C(O)c1ccc2c3c1cccc3c(=O)n1c3ccccc3nc21	117
COc1cc2ncnc(Nc3ccc(Oc4ccccc4)cc3)c2cc1OC	124
O=S(=O)(c1cccc2cnccc12)N1CCCNCC1	89.9
CN(C)c1ccc(C=C2C(=O)Nc3ccccc32)cc1	104
OCC(O)CCON=C1C(c2c(O)[nH]c3ccccc23)=Nc2ccccc21 (centres unmarked)	92.9
CCOC(=O)c1c(C)[nH]c(/C=C2\C(=O)Nc3ccccc32)c1C	116
O=C(Nc1cccc(Nc2cc(Nc3cccc(C(F)(F)F)c3)ncn2)c1)C1CC1	87.8

Repeated from above (sample 1):
target	test	remaining binding
CAMK2B (Homo sapiens, UniProt Q13554)	cell-free assay	92%
CDK11A (Homo sapiens, UniProt Q9UQ88)	binding	91%
DCLK2 (Homo sapiens, UniProt Q8N568)	cell-free assay	90%
DSTYK (Homo sapiens, UniProt Q6XUX3)	cell-free assay	100%
